Assay results collected from several papers.
Each numbered part is a random draw from the data of one study; scales do not carry over between parts. Positions count from the first letter of the parent shown.

Series 1 — technique: protein-binding microarray; molecule type: double-stranded DNA, one strand shown; sample: in vitro; concentration: 940 nM top; setting: 60-bp whole probe; together with: salmon DNA 0.4 mg/ml; relative to: random background probes; direction: higher = stronger binding; endpoint: fitted relative affinity; shared flanks, not repeated: GCCTAGCAC … GTCTTGATTCGCTTGACGCTGCTG
Target: Interferon regulatory factor 5, full length, phosphomimetic (IRF5, Homo sapiens, UniProt Q13568-2, residues 1-514, S451D/S453D/S456D/S462D)
CACGGTTTCGGGTATCGGGACGTGCTA: 8.71 z-score
TCATATGTGTATATATAACTGTGCTAG: 0.119 z-score
GCCCTTATCCAATCAGAATTGTGCTAG: 0.674 z-score
TAACTAATATTAAATATGTAGTGCTAG: 0.163 z-score
CAAATTGTCTCTGTCCCTGTGTGCTAG: 1.45 z-score
GACCAACTGAGTATCGAGACGTGCTAG: 1.5 z-score
CTCCCTTGAGGTTTTCTCTGGGTGCTA: -0.213 z-score
TTAGGTATCCTTCTCCTTCAGTGCTAG: 0.427 z-score
GACGGTATCGGTCTCAGGACGTGCTAG: 8.48 z-score
TTAGATATCATTATCGATTAGTGCTAG: 0.754 z-score
TACTCTCTCCATGTGTTTAAGTGCTAG: 2.16 z-score
TTAGCACTGGGGACTGGGTTAGTGCTA: -0.188 z-score
TTAGAGTTCGGGACTGGATTAGTGCTA: -0.6 z-score
TTAGGTCTCGGTTTCGGTTGGTGCTAG: 9.38 z-score
GCCGATTTCAGTTTCGAGACGTGCTAG: 5.48 z-score
TACGGTATCGACTTTCGGGACGTGCTA: 3.67 z-score
TTGGGTCTCGGACTGGGTTAGTGCTAG: 0.989 z-score
GACGGACTGGACTTTTGGGACGTGCTA: -0.2 z-score
TTAGGTCTGGGGTATCGGTTAGTGCTA: 2.36 z-score
TTAGGACTGGGGATTGGGTTAGTGCTA: 0.0427 z-score
GACGGACTGTTACTGCTGACGTGCTAG: -0.254 z-score
CCCTCCCTAATTCTGATTGGGTGCTAG: 0.351 z-score
GATGGACTGGACACTGGGGACGTGCTA: -0.41 z-score
GACGGACTGGACCCTGGGGACGTGCTA: -0.598 z-score
TTAGATTTCCGTCTCGATTAGTGCTAG: 2.66 z-score

Series 2 — technique: DHFR PCA, deep sequencing; sample: yeast; together with: (+)-ABA 0.032 µM; relative to: wild-type fitted maximum; direction: higher = stronger binding; endpoint: relative binding score
Target: ABI1, truncated, D143A, DHFR fusion (Arabidopsis thaliana)
Setting: methotrexate growth selection, single substitutions
Starting sequence: PYL1, truncated, DHFR fusion (Arabidopsis thaliana); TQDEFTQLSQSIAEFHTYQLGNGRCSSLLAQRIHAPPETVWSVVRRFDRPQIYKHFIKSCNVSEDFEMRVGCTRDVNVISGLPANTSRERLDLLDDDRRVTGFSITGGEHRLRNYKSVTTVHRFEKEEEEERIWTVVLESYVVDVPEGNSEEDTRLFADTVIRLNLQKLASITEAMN; partner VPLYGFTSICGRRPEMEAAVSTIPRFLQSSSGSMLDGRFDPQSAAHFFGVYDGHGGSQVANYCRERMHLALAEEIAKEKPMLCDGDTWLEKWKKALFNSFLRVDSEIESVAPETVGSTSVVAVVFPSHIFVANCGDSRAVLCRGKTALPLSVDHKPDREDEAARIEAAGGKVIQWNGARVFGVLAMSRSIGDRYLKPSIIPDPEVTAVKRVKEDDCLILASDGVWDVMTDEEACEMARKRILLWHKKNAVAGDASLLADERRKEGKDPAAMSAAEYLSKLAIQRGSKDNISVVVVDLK
I105V: 19.5%
S117N: -0.435%
V44R: -3.11%
G102W: 7.21%
F66N: 1.89%
Q10V: 6.74%
R74D: -6.77%
Q19E: 47.6%
F103C: -1.87%
D92I: 3.8%
R98M: 6.62%
T101K: -0.813%
A13T: 17.1%

Series 3 — technique: RNA Bind-n-Seq; molecule type: RNA; sample: in vitro; concentration: not given; relative to: input RNA pool; direction: higher = stronger binding; endpoint: bound/input enrichment
Target: RING finger protein unkempt homolog, zinc fingers 1-6, GST-SBP tag (UNK, Homo sapiens, UniProt Q9C0B0, residues 30-357)
Sequence of UniProt Q9C0B0 (30-357, looked up): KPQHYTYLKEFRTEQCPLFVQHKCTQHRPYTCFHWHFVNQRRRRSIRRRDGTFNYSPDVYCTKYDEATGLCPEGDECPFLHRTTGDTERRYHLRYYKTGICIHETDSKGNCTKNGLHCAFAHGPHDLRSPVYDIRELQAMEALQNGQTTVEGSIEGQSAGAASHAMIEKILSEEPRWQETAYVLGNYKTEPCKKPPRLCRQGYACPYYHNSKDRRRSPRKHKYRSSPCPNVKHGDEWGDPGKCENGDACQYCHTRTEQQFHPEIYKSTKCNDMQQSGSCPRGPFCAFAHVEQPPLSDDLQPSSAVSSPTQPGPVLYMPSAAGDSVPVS
Setting: RNA with constant flanks, human-mouse chimeric sites, ends assumed
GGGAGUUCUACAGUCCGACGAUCGAAACAUUUAAAUUUAAAGAAGCUGUUGUUCUAGGAAGUACGGACUUUCUAGAAGAUGAUAUAGAAAAAAUUGUAGAAGAACUGGGAAAAGAGUAUAAGGGCAACGCCUACCAUCUGAUGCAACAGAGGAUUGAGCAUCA: 1.49 ratio
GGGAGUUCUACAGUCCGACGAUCAAAGGCAAAAAGGGCAGCUGUGUCAUUUCAUAAGUAACUCUGGGGGAUAAGUGGAAGGUUCUUUUGUUUAAUUUUCCCCCAAAUGAAGCCAAAGUGUGUGUUGAAGAACUGAGAAAAAAUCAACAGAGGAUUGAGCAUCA: 0.149 ratio
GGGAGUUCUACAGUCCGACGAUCUACUACUGAAUCUGUGAUAUUGGCAAUUAUUAUUAUGGCCAGGGUCAUCCCAUGAAGCCUCAUAGAAUCCGGAUGACUCAUAACUUGCUGUUAAAUUAUGGUUUAUACCGAAAAAUGGAACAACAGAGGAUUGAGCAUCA: 0.266 ratio
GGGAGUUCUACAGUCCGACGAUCUUUGUAUUUAUGCUAAGCACGCGUGCUGGUGGUCUGGGCAUCAAUCUUGCAACUGCUGAUGUAGUAAUUUUAUAUGACUCAGAUUGGAAUCCGCAAGUUGAUCUUCAGGCUAUGGACCGUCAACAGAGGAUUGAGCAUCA: 0.407 ratio
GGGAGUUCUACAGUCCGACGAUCUAAGUUAUUUUGUACAGCUUUGUAAAUUCUUAACAUUUUUAUAUUGCCAUGUUUAUUUUUUUUAGAUAAUUUGGUUCAUUAAGUACAUAGCUAAGGUAAUGAACAUCUUUUUCAGUAAUUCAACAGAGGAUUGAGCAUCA: 3.66 ratio
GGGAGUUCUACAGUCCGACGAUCAGAGCCCAGGAUGUUGAUGCUACAAACCCAAAUUACGAAAUUAUGUGUAUGAUCAGAGACUUCAGAGGGAGCUUGGAUUAUAGACCACUAACAACAGCAGAUCCUAUUGAUGAACAUAGGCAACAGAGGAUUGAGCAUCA: 0.53 ratio
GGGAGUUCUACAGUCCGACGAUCUAAGUCCUGUGCCAGCACUUCGCUCAUAAAGUUUUAAAUUCUGGACCAAUUGUGUUUAUCUUUAGAAUAUUGUAUCCAAUACUUUGCCUAGUAUGUAACUCACUCUUACUGAUAAUAAAACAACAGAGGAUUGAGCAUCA: 4.08 ratio
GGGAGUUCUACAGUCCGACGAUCGAGCGUCUUGCCCGCACUGGGAUCAUCGUGACCACGAGUGAGGCUGUCCUCCUACAGCUGGUGGCUGAUAAGGACCACCCGAAGUUCAAGGAAAUUCAGAACCUAAUUAAGGCGAGUGCCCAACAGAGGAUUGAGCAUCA: 0.113 ratio
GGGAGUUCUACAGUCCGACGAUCGGGACUGAUUCAUCCCAAGGACAGGCCACCCCAUUUGAUGCCUGGACUGACGACAGUAUGGAAGGGCCUAGUCAAAAUUUUGAAGCUGAGUCAAUUCAGGAUGCCAUGAGUAUGGAAGAGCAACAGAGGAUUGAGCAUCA: 0.423 ratio
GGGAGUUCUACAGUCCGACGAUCUACUCAACUUUCUUGCCACAUUUUGAAUUCCAAGACAUUAUUCCUCCAGAUGACUUCCUAACUAGUGAUGAAGAGCAAGAUUUGGUUUUAUUUGGAACUAUGAGAGGUCAUGUGGUUGGACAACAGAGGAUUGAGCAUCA: 0.391 ratio
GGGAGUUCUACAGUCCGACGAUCCAGCGCCGAGGCCGCGGGUGCCCGCCGGGCCUCCCCAGCAGCAGCCAUGGGCAUCAAAUUUUUAGAAGUUAUCAAACCAUUCUGUGCAGUUCUACCAGAAAUUCAGAAGCCUGAAAGGAACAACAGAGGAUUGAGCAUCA: 0.849 ratio

Series 4 — target: CCND1, cyclin fold, Cln2 fusion (human); technique: yeast growth competition, sequencing; sample: yeast; setting: weak parent motif; relative to: not given; direction: higher = stronger binding; endpoint: normalised enrichment score
Starting sequence: CDC25A docking peptide (human); PPHRRRLLFACSP
PPHRRNLLFACSP [R6N]: 0.233
PPHRRRLLFALSP [C11L]: 0.292
PPHQRRLLFACSP [R4Q]: 0.0868
TPHRRRLLFACSP [P1T]: -0.00209
PPHRRRLLFACSA [P13A]: 0.309
PPHRNRLLFACSP [R5N]: -0.607
PPHRRRYLFACSP [L7Y]: 0.226
PPARRRLLFACSP [H3A]: -0.224
PPHRRRLLFNCSP [A10N]: -0.135
PPHRRRLYFACSP [L8Y]: -0.126
PPHRRRLLQACSP [F9Q]: -0.471
PPHRRRLLFACIP [S12I]: 0.481
PPHRCRLLFACSP [R5C]: -0.0887
PPHRRRLLCACSP [F9C]: -0.33
PPGRRRLLFACSP [H3G]: 0.413
PPHRPRLLFACSP [R5P]: 0.111
PPHRRRLLFSCSP [A10S]: 0.0768
PPHDRRLLFACSP [R4D]: 0.153

A few entries again (series 1):
TACGGTATCGACTTTCGGGACGTGCTA: 3.67 z-score
TTGGGTCTCGGACTGGGTTAGTGCTAG: 0.989 z-score
GACGGACTGGACTTTTGGGACGTGCTA: -0.2 z-score
TTAGGTCTGGGGTATCGGTTAGTGCTA: 2.36 z-score
TTAGGACTGGGGATTGGGTTAGTGCTA: 0.0427 z-score
GACGGACTGTTACTGCTGACGTGCTAG: -0.254 z-score
CCCTCCCTAATTCTGATTGGGTGCTAG: 0.351 z-score
GATGGACTGGACACTGGGGACGTGCTA: -0.41 z-score
